Measured values gathered from unrelated publications.
Every numbered part comes from another study and shows a few of its results, in no order.

Study 1
Target: Interferon regulatory factor 5, full length, phosphomimetic (IRF5, Homo sapiens, UniProt Q13568-2, residues 1-514, S451D/S453D/S456D/S462D)
Method: protein-binding microarray
Molecule type: double-stranded DNA, one strand shown
Sample: in vitro
Tested at: 940 nM top
Setting: 60-bp whole probe
Together with: salmon DNA 0.4 mg/ml
Relative to: random background probes
Reading: higher = stronger binding
Measurement: fitted relative affinity
Shared flanks, not repeated: GCCTAGCAC … GTCTTGATTCGCTTGACGCTGCTG
Strand = TTAGGTATCATTTTCCTTTAGTGCTAG; result = 3.34 z-score
Strand = CCATCGATTTCTCTTTCCCAAGTGCTA; result = 1.64 z-score
Strand = TCAGGTTTCGGGACTGGGTTAGTGCTA; result = 7.35 z-score
Strand = TCAGTTTCTCCTTTGTAACTGTGCTAG; result = 4.99 z-score
Strand = TGTTATTAAAATTTAATGGGGTGCTAG; result = 0.184 z-score
Strand = GACGATATCATTTTCGAGACGTGCTAG; result = 0.674 z-score
Strand = GACGGACTGCTTATTCTGACGTGCTAG; result = -0.462 z-score
Strand = TATGCTTTCTTTAACTCATTGTGCTAG; result = 1.26 z-score
Strand = GACGGTTTCGGTTTCGGGACGTGCTAG; result = 14.8 z-score
Strand = TTAGATTTCGGGCATCGATTAGTGCTA; result = 0.841 z-score
Strand = TGCTTCCTCTTTCTCTGCTAGTGCTAG; result = 1.96 z-score
Strand = TCATGATCCATTTTGGTACTGTGCTAG; result = 0.11 z-score
Strand = TTAGGTTTCGGGACTGGGTTTGTGCTA; result = 8.32 z-score
Strand = TCAGCTCTGCGGTTCAGACTGTGCTAG; result = -0.584 z-score
Strand = GACGATTTCGGGTGTCGAGACGTGCTA; result = 0.486 z-score
Strand = TTAGGACTGCTTATCATTTAGTGCTAG; result = -0.0321 z-score
Strand = GACGGTATCGGATTTCGGGACGTGCTA; result = 3.18 z-score
Strand = GACGGTAACGGTTTCGGGACGTGCTAG; result = 3.42 z-score
Strand = GACGGTATCGGGACTGGAGACGTGCTA; result = 2.59 z-score

Study 2
Target: Ras GTPase-activating protein-binding protein 1, RRM domain (G3BP1, Homo sapiens, UniProt Q13283)
UniProt Q13283, sequence (whole entry, looked up): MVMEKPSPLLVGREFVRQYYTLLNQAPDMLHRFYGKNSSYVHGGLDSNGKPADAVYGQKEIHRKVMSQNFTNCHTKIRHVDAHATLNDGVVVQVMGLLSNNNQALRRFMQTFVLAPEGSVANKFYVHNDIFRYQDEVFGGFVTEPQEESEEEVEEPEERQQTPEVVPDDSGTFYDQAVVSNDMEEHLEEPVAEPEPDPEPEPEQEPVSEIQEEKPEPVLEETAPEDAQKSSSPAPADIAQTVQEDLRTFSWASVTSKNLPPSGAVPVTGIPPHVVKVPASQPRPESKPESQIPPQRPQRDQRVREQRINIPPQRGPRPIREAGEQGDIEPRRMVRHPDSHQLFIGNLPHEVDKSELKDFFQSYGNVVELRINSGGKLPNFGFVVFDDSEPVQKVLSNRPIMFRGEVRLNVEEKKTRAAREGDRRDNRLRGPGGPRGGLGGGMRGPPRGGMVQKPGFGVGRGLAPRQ
Method: RNA Bind-n-Seq
Molecule type: RNA
Sample: in vitro
Tested at: 1 µM
Setting: whole 134-nt RNA, ends assumed
Together with: 150 mM KCl
Relative to: input library
Reading: higher = stronger binding
Measurement: log2 enrichment
Shared flanks, not repeated: GGGAGUUCUACAGUCCGACGAUC … UGGAAUUCUCGGGUGUCAAGG
Strand = AGCCGAGCGGGAACGGAACCGACAGCUGGAGCGAGAGAAACGUCGGGAGCACAGUCGGGAGAGGGACAGGGAGAGAGAGAGAGAAAGGGA; result = -0.263
Strand = UGGCCCUGGUGGCAUGCGGGGAGGAAGAGGUGGCCUAAUGGAUCGUGGUGGUCCCGGUGGAAUGUUCAGAGGUGGCCGUGGUGGAGACAG; result = 0.962
Strand = CAAGUCCUGUGCUACACAUCGUAUGUACCGAAUCGGGAAAAAGGGAGGGUUUGGGAAAGUAUUAUGUUACGCCGUUCGGAUCUGCACUUC; result = 0.749
Strand = CACAGACAACACGCACCCACACAGACACAGAGGGAAGGGGUUGGGAUGGGGACGGGGUGCACAGCAGGGCGGGGUAGGACCCCAGCCCCU; result = 0.124
Strand = CUGUGCUACACAUCGUAUGUACCGAAUCGGGGUUUGGGGAAAAAAAGGGGUUUUUUUGGGGAAAGUAUUAUGUUACGCCGUUCGGAUCUG; result = 1.06
Strand = GUCCUGUGCUACACAUCGUAUGUACCGAAUCGGGAAAAAAAGGGAGGGUUUUUUUGGGAAAGUAUUAUGUUACGCCGUUCGGAUCUGCAC; result = 0.229
Strand = UGGGAGGUGGAUUUUGUUUAUUUUUUUAGCUCAUUUCCAGGGGUGGGAAUUUUUUUUUAAUAUGUGUCAUGAAUAAAGUUGUGUUUGAAA; result = 1.99
Strand = UCCUGUGCUACACAUCGUAUGUACCGAAUCGGGGCCCCCCGGGCCCCCCGGGCCCCCCGGAAAGUAUUAUGUUACGCCGUUCGGAUCUGC; result = -0.393
Strand = UCCCAGCCGAGGACGUCGGAUGUCAUCGUCCUUGCUGCUUUGCCACCCCAUUCCCGUCAAUAAAGUGGUUUGAACCCAACCCUGGUGUCG; result = 0.725
Strand = UAACUUUAGAGGAGGAUCUGAUGGAUAUGGCAGUGGACGUGGAUUUGGGGAUGGCUAUAAUGGGUAAGGAGGAGGACCUGGAGGUGGCAA; result = -0.315
Strand = CCUGUGCUACACAUCGUAUGUACCGAAUCGGGGUUUGGGGUUUUUUUGGGGUUUUUGGGGAAAGUAUUAUGUUACGCCGUUCGGAUCUGC; result = 1.27
Strand = UCCUGUGCUACACAUCGUAUGUACCGAAUCGGGCCCCCCGGCCCCCCGGCCCCCCGGGGAAAGUAUUAUGUUACGCCGUUCGGAUCUGCA; result = -0.482
Strand = AGUCCUGUGCUACACAUCGUAUGUACCGAAUCGGGUUUUUGGUUUUUGGGUUUUUGGAAAGUAUUAUGUUACGCCGUUCGGAUCUGCACU; result = -0.102
Strand = UUUCUCCACAGGAGCCCCGCAAGUGAGCCAGCCACUGCGAGAGCAGAGUGAGGAUAUACCUGGAGCCAUUUCCUCUGCCCUGGCAGCCAU; result = 0.185

Study 3
Target: RNA binding protein fox-1 homolog 2, RRM domain, GST-SBP tag (RBFOX2, Homo sapiens, UniProt O43251-10, residues 100-194)
Method: RNA Bind-n-Seq
Molecule type: RNA
Sample: in vitro
Tested at: 365 nM
Setting: natural RNA segment, single round, ends assumed
Relative to: no-protein control
Reading: higher = stronger binding
Measurement: RBNS enrichment (R)
Shared flanks, not repeated: GGGAGUUCUACAGUCCGACGAUC … UGGAAUUCUCGGGUGCCAA
Construct (chain): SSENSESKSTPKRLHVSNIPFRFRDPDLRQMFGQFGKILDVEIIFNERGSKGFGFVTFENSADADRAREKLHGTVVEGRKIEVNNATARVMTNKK
Strand = GUUGAUACCUGAGCCUGCAAUAGAGCCCUGAAAUCAAGAGCAUGGCUUGAGUGUGUGAAUAUGAUGUGUGCACAUGCUUAAUGAGCGUGCAAGUGUGCACACGUUUGUGG; result = 6.88
Strand = UCAUACUCCAAUCAUAACCUUGUAUAUUAUGCAGUCAUUUUGGUUUUCGCGGACGCGCCUACCUAAGUACCAUUUACAGAAAGUGACUCUGGCUGUCAUUAUUUUGUUUA; result = 0.408
Strand = UGUCACUCCUUUGGUCAUUAAAUGCACUGGGCUUGCCCGCACUUUGGCCUUCCUAGAACACUGCUUCAUAACCUCUCUGUCUGACUUCUGCAUCUCCUUCCAGGUCAGCU; result = 1.42
Strand = CUUCUUUGAAUUAAGUGGACUGUGGCAUGACAUUCUGCAAUAUUUUGCUGAAUUGAACACUAUUGUGUCUUAAAUACUUGCACUAAAAAAGUGCACUGCAAGGCCAGAAA; result = 0.377
Strand = AUAGUGACAUCUGGGACCCCAGGCCUCUGAAGCAUUUGCAGCCUCCUCAGGAGGGUGAGGGCCAUCUUAAUGCAGUGGUAAGGGACUGGUGAUCAUGGCUUCUCUAGCUG; result = 0.356
Strand = UCACACUGUGGGCACCUCUUGCAUCGCCUGCCAUUGCUGUGGAGGGUGGCCAUGGGCCAAAGGAAAAAGCACUGUCCUAUCUCAAGGUCCACUGUGGAAAUGUCCACCUU; result = 1.37
Strand = AAAGGGUGGUAUUUCUAUUUGUAAAGAAAAGAAAAAUCAAAUGAAAGCAAGAUUUUUUUUUUUUAAAUAUAAGAAGGCUGGGCGUGGUGGCGCACGCCUGUGAUCCUAGC; result = 0.784
Strand = CAGAUUCGUCUUCUGAGAGCUUGAAGCAACCCAUGAUUUGUCCCUCCACUGCUCUUCACUGGGUUCACUUCCAAGGAGACUAAUGGCUCUAUUGUAAAAAUUGCUCUUAA; result = 0.285
Strand = GCAAGAGCCAGUGCCUGACUGAGGCCUUCCUGUGUUGUGGCCUUCCCCCUCCAUCACCCCCAAGACCCCUCUUCUCCCUCUUCUUAGCCUGCUGUGUGAGAGAGGAGCCA; result = 1.31
Strand = GGGGAAAAACCGUAUUUUUUUCUUGUCCAAUUAUUUCUAAAGACACACUACAUAGAAAGAGGCCCUAUAAACUCAAAAAGUCAUUGGGAAACUUAAAGUCUAUUCUACUU; result = 0.37
Strand = GAAUUUAAUGCUUCCAAAUGUUUGCAGUUACCAAACAUUGUUAUGCAAGAAAUCAUAAAAUGAAGACUUAUACCAUUGUGUUUAAGCUGUAUUGAAUUAUCUGUGGAAUG; result = 0.388
Strand = CCAAAGUACGGGUAAUUCAGCCUGCACAGUUUCCUUUCACUCAUAGUUUCACAAUUACGAGUGAAAAAUCAUGUAAUUAUCUGUAAAUAUGUAGCUAACAAAUUGACCUA; result = 3.62

Study 4
Target: PABPC1L2, full length, GST fusion (mouse, UniProt A0ABA7IW68)
Method: RNAcompete
Molecule type: RNA
Sample: in vitro
Tested at: 20 nM
Setting: 7-mer, probes averaged, single round
Relative to: mean of 7-mers
Reading: higher = stronger binding
Measurement: 7-mer Z-score
Construct (chain): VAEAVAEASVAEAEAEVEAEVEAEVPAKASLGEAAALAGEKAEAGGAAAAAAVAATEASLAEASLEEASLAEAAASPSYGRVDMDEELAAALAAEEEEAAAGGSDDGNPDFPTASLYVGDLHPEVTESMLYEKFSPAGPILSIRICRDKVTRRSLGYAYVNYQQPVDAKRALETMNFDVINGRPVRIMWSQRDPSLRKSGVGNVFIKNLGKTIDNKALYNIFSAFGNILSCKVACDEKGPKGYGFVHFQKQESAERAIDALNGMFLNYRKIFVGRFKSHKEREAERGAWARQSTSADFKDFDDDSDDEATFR
Strand = UUAACCC; result = -0.291
Strand = AACAGCC; result = 0.456
Strand = UGGUUAG; result = -0.0627
Strand = AAUAGAA; result = 1.35
Strand = UACGUUG; result = -0.15
Strand = GUACACG; result = -0.124
Strand = GUUUCGC; result = -0.552
Strand = UAAAGAU; result = 1.12
Strand = CAAUCAC; result = -0.0645
Strand = GAUGAAA; result = 0.408
Strand = CUCGGAG; result = -0.0355
Strand = CUGGAAC; result = -0.0246
Strand = UACCUAA; result = -0.0772
Strand = AGCGCCU; result = -0.0156
Strand = UACAGCC; result = -0.237
Strand = ACCGGGU; result = -0.0536
Strand = GUCCAUU; result = -0.266
Strand = GCGACGG; result = 0.144
Strand = AGGUGCU; result = 0.273
Strand = UGAUAUG; result = -0.168
Strand = CUGCCUG; result = -0.306
Strand = ACGCCAC; result = -0.153
Strand = AGUAGUU; result = -0.195
Strand = CAUCUGC; result = -0.159
Strand = UAACUUC; result = -0.306

Study 5
Target: Histone acetyltransferase KAT6A, both winged helices, GST fusion (KAT6A, Homo sapiens, UniProt Q92794, residues 1-181)
Method: protein binding microarray
Molecule type: double-stranded DNA, one strand shown
Sample: in vitro
Tested at: not given
Setting: 8-mer, flanks averaged, mean of 2 arrays, mostly near background
Relative to: not given
Reading: higher = stronger binding
Measurement: E-score
Residues (chain): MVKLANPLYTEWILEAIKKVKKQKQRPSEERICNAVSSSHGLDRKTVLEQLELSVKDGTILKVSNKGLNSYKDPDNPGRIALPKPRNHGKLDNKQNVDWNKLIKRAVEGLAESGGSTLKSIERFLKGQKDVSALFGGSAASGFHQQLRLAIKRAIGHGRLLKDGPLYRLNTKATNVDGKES
Strand = CAGCAATA; result = -0.158
Strand = ACGATCCT; result = -0.15
Strand = ACGAATCT; result = -0.11
Strand = CGCTTCCG; result = 0.349
Strand = AACTTCTC; result = -0.081
Strand = CAGGGGCG; result = 0.0958
Strand = GCGTAGAA; result = 0.0727
Strand = CCTAAAAG; result = -0.214
Strand = ATCACGGG; result = 0.115
Strand = CCTGGACA; result = -0.0858
Strand = GCCTATGA; result = 0.0268
Strand = TCGATAAA; result = 0.173
Strand = ACGTCACT; result = -0.0601
Strand = CAAAGTTA; result = 0.0298
Strand = ATTAAAGG; result = -0.112
Strand = CTCCCTGA; result = -0.21
Strand = AAGCACTT; result = -0.116
Strand = ATTATATG; result = -0.166
Strand = GAGCTGGC; result = -0.143
Strand = AAGGTCGA; result = -0.0336

Some of these lines once more (study 5):
Strand = CGCTTCCG; result = 0.349
Strand = AACTTCTC; result = -0.081
Strand = CAGGGGCG; result = 0.0958
Strand = GCGTAGAA; result = 0.0727
Strand = CCTAAAAG; result = -0.214
Strand = ATCACGGG; result = 0.115
Strand = CCTGGACA; result = -0.0858
Strand = GCCTATGA; result = 0.0268
Strand = TCGATAAA; result = 0.173
Strand = ACGTCACT; result = -0.0601
Strand = CAAAGTTA; result = 0.0298
Strand = ATTAAAGG; result = -0.112
Strand = CTCCCTGA; result = -0.21
